Results gathered from unrelated publications.
A part holds a random share of what one study measured. Values joined by “and” are separate records of one study, mostly repeats; a detail may differ. Changes are numbered by the printed parent chain. Numbers after ± are the reported error.
UniProt Q13153, sequence (whole entry, looked up): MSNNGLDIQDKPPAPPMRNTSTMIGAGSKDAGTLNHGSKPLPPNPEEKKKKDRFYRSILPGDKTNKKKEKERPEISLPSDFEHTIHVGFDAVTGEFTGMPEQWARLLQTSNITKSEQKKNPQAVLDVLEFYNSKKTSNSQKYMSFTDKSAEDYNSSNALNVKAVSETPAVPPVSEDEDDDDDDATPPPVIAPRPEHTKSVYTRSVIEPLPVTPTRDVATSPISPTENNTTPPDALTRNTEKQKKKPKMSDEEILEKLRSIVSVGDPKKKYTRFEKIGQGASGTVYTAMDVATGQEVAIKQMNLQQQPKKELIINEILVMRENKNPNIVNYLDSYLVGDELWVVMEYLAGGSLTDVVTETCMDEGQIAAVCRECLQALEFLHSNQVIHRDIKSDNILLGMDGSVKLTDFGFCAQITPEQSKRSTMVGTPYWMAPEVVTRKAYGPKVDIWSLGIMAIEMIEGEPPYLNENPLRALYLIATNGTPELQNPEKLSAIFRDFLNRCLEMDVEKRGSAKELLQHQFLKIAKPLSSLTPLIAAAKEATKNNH
UniProt O75417, sequence (whole entry, unmodified, looked up): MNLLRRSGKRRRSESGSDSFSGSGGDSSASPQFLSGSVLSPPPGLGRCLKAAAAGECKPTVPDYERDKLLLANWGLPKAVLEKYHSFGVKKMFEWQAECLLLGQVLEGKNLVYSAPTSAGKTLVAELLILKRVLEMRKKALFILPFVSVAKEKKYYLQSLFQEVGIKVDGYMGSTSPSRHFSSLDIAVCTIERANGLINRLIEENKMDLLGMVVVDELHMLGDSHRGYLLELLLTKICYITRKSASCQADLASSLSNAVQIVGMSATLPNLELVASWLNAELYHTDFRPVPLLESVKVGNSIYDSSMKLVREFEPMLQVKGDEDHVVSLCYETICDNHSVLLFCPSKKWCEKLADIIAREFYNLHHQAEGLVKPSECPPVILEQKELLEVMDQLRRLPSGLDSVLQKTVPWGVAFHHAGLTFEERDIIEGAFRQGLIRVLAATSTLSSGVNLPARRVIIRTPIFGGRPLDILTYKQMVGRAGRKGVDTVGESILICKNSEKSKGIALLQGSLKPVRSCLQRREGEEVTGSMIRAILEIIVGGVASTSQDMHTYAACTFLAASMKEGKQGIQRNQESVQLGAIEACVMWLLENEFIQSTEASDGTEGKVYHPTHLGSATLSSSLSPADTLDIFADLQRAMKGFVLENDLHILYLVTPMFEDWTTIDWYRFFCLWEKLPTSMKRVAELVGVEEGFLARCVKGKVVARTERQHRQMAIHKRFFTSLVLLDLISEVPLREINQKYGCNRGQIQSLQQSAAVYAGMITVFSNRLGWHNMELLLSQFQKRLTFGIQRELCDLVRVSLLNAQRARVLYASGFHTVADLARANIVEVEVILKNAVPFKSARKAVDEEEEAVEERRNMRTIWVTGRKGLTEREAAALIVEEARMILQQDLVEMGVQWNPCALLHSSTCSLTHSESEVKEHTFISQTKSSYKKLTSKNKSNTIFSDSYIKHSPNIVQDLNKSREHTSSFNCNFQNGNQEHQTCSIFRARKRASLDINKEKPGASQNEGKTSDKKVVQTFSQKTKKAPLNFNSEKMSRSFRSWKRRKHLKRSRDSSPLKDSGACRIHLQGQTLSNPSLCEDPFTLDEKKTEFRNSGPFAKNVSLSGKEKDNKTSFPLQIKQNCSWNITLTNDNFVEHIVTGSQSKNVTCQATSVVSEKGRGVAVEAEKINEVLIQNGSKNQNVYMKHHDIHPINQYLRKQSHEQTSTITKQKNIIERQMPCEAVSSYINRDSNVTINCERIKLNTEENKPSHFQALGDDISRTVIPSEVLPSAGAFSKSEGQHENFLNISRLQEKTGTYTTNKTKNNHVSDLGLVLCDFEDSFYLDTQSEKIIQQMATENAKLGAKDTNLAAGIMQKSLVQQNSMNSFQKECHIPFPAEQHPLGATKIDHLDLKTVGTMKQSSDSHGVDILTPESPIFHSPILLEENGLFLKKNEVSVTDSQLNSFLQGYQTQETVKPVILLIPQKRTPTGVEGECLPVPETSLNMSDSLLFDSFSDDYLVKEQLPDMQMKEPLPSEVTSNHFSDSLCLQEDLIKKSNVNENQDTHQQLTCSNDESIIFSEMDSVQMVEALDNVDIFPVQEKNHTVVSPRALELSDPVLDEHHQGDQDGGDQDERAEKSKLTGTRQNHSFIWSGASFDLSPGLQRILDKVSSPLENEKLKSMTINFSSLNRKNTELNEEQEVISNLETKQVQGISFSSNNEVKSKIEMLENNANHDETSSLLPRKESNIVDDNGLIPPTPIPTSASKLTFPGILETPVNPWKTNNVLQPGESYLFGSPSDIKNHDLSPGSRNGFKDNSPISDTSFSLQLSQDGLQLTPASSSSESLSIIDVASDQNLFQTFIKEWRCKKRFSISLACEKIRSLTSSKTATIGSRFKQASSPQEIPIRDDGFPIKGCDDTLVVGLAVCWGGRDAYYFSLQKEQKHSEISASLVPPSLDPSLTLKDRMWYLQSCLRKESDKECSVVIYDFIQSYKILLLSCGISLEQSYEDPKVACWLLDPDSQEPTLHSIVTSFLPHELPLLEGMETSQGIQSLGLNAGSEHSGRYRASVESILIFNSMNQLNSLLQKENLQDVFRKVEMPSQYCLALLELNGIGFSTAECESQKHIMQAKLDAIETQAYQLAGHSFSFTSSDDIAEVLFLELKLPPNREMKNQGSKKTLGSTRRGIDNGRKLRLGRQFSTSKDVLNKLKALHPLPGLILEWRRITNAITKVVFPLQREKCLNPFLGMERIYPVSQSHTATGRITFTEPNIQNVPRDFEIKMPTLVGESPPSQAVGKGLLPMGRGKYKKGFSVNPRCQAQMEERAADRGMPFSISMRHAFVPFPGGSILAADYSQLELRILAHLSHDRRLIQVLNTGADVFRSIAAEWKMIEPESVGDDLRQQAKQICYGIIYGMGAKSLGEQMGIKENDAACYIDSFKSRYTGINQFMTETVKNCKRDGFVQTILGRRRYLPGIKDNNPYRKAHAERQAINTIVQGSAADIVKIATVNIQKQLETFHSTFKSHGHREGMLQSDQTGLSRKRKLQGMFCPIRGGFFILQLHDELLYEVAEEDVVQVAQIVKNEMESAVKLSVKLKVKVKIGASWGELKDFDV
UniProt P42680, sequence (whole entry, looked up): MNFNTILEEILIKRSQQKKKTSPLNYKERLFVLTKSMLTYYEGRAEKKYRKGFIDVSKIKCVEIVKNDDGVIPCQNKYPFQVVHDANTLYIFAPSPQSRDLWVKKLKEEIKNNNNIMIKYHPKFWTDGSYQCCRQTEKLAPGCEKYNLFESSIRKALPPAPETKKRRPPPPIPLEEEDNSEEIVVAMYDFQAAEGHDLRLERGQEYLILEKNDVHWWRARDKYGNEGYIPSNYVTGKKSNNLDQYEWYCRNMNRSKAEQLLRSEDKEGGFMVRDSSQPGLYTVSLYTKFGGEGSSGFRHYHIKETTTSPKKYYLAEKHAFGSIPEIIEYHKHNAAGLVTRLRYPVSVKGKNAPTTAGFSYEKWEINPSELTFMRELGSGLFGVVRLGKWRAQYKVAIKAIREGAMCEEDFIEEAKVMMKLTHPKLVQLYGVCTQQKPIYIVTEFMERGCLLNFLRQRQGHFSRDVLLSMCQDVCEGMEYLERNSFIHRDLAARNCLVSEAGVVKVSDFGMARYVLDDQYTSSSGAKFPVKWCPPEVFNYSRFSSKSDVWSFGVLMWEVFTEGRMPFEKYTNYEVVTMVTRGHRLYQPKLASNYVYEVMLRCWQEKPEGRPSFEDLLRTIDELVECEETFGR
UniProt P61075, sequence (whole entry, looked up): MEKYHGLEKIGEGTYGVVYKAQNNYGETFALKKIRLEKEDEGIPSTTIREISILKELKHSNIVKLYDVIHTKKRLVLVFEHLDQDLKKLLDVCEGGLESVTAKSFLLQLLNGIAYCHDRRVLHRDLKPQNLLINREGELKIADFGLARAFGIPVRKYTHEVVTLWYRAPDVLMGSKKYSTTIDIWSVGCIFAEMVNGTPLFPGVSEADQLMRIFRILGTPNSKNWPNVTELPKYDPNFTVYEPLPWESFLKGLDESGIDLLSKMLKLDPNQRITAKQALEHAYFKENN

Sample 1 — cell line: HaCaT; concentration: 100 µM; time: 18 h
The viability of `Nc1nc(N)nc(NC2CC2)n1` is reported as 91.5%.
With `COc1ccc(OC)c([C@@H](O)[C@H](C)N)c1` the viability was 110%.
With `CCCCC(C#N)(Cn1cncn1)c1ccc(Cl)cc1` (stereo not shown) the viability was 64.7%.
`CCN(CC)C(C)C(=O)c1ccccc1` (stereo not shown) has a viability of 110%.

Sample 2 — cell line: HEK-293T; observed: pseudovirus infection; technique: FDA-approved drug library counter-screen; organism: VSV pseudotyped with VSV-G; concentration: 10 µM; time: 16 h; baseline: vehicle-treated
With `c1ccc2c(CC3=NCCN3)cccc2c1` the GFP-positive cells was 115%.
`CO[C@H]1/C=C/O[C@@]2(C)Oc3c(C)c(O)c4c(O)c(c(/C=N/N5CCN(C)CC5)c(O)c4c3C2=O)NC(=O)/C(C)=C\C=C\[C@H](C)[C@H](O)[C@@H](C)[C@@H](O)[C@@H](C)[C@H](OC(C)=O)[C@@H]1C` gave a GFP-positive cells of 108%.
`Cc1cc(/C=C/C#N)cc(C)c1Nc1ccnc(Nc2ccc(C#N)cc2)n1` gave a GFP-positive cells of -0.23%.
For `CCOC(=O)C(C)(C)Oc1ccc(Cl)cc1`, the GFP-positive cells was 117%.
With `C[C@@](Cc1ccc(O)c(O)c1)(NN)C(=O)O` the GFP-positive cells was 101%.
With `O=C1CCCC(=O)C1C(=O)c1ccc(C(F)(F)F)cc1[N+](=O)[O-]` the GFP-positive cells was 118%.
`Cn1cc[nH]c1=S` gave a GFP-positive cells of 88.2%.
For `CCn1nc(C(=O)O)c(=O)c2cc3c(cc21)OCO3`, the GFP-positive cells was 88.2%.
`NC(=O)N[C@@H](CCC(=O)O)C(=O)O` has a GFP-positive cells of 84.3%.
`CC(=O)Oc1ccccc1C(=O)O` has a GFP-positive cells of 142%.
With `CCCCN1CCCC[C@H]1C(=O)Nc1c(C)cccc1C` the GFP-positive cells was 122%.
`CO[C@H]1C(=O)[C@]2(C)[C@@H](OC)C[C@H]3OC[C@@]3(OC(C)=O)[C@H]2[C@H](OC(=O)c2ccccc2)[C@]2(O)C[C@H](OC(=O)[C@H](O)[C@@H](NC(=O)OC(C)(C)C)c3ccccc3)C(C)=C1C2(C)C` gave a GFP-positive cells of 79%.
For `CCOC(=O)[C@H](CCc1ccccc1)N[C@@H](C)C(=O)N1CCC[C@H]1C(=O)O`, the GFP-positive cells was 107%.
`Nc1nc(=O)c2nc(CNc3ccc(C(=O)N[C@@H](CCC(=O)O)C(=O)O)cc3)cnc2[nH]1` gave a GFP-positive cells of 116%.
For `CC(=O)OCC[N+](C)(C)C`, the GFP-positive cells was 117%.
For `CCOC(=O)CCC(=O)O[C@H]1[C@H](O[C@@H]2[C@@H](C)[C@H](O[C@H]3C[C@@](C)(OC)[C@@H](O)[C@H](C)O3)[C@@H](C)C(=O)O[C@H](CC)[C@@](C)(O)[C@H](O)[C@@H](C)C(=O)[C@H](C)C[C@@]2(C)O)O[C@H](C)C[C@@H]1N(C)C`, the GFP-positive cells was 99.8%.
The GFP-positive cells of `CC(C)Cc1ccc(C(C)C(=O)O)cc1` (stereo not shown) is reported as 94.3%.
For `Cc1nnc(SCC2=C(C(=O)O)N3C(=O)[C@@H](NC(=O)Cn4cnnn4)[C@H]3SC2)s1`, the GFP-positive cells was 91.5%.
`O=C1CN2Cc3c(ccc(Cl)c3Cl)N=C2N1` gave a GFP-positive cells of 101%.
`CCCCCCCCCCCCCCCCOP(=O)([O-])OCC[N+](C)(C)C` has a GFP-positive cells of 110%.
`Nc1ccc(/N=N/c2ccccc2)c(N)n1` has a GFP-positive cells of 106%.
`O=C1CCc2cc(OCCCCc3nnnn3C3CCCCC3)ccc2N1` gave a GFP-positive cells of 117%.
`CCn1cc(C(=O)O)c(=O)c2cc(F)c(N3CCNC(C)C3)c(F)c21` (stereo not shown) has a GFP-positive cells of 100%.
With `CC(C)C[C@H](CN)CC(=O)O` the GFP-positive cells was 95.2%.
`Cc1cc(C2CCCCC2)n(O)c(=O)c1` gave a GFP-positive cells of 54.9%.

Sample 3 — SMILES: CC(C)(C)c1cc(C=C(C#N)C#N)cc(Br)c1O; observed: enzyme activity; mode: inhibitor; concentration: 0.5 µM
The remaining activity was 89.9% (PAK1 (Homo sapiens, UniProt Q13153); baseline: control).
It gave 98.2% for remaining activity (HIPK3 (Homo sapiens, UniProt Q9H422)).
MAP3K8 (Homo sapiens, UniProt P41279) — remaining activity: 104%.
Cyclin-dependent kinase 7, with cyclin H (CDK7, Homo sapiens, UniProt P50613) — remaining activity: 98.5%.
MAP3K7 (Homo sapiens, UniProt O43318) — remaining activity: 87.9%.
For Cyclin-dependent kinase 9, with cyclin T1 (CDK9, Homo sapiens, UniProt P50750): remaining activity read 95.4%.
PRKCG (Homo sapiens, UniProt P05129) — remaining activity: 90.4%.
The remaining activity was 171% (TEC (Homo sapiens, UniProt P42680); baseline: control).
OXSR1 (Homo sapiens, UniProt O95747) — remaining activity: 98%.
PIM3 (Homo sapiens, UniProt Q86V86) — remaining activity: 89.1%.
For PAK6 (Homo sapiens, UniProt Q9NQU5); baseline: control: remaining activity read 101%.

Sample 4 — target: CCNB3, cyclin fold, Cln2 fusion (human); technique: yeast growth competition, sequencing; sample: yeast; setting: weak parent motif; baseline: not given; reading: higher = stronger binding; starting sequence: viral docking peptide; KKVKRRLFETREL
For `KKVKRRLFETAEL [R11A]`, “normalised enrichment score” read 0.596.
`KKVKRRLAETREL [F8A]` — result for “normalised enrichment score”: -0.124.
For `KKVKRRLFATREL [E9A]`, “normalised enrichment score” read 0.28.
For `KKVKRRLFETREA [L13A]`, “normalised enrichment score” read 0.658.
`KKAKRRLFETREL [V3A]`: “normalised enrichment score” 0.277.
`KAVKRRLFETREL [K2A]`: “normalised enrichment score” 0.996.
For `KKVARRLFETREL [K4A]`, “normalised enrichment score” read 0.0778.
For `KKVKKRLLETREL [R5K F8L]`, “normalised enrichment score” read 0.114.

Further values, each from its own experiment
With `Cc1cccc([C@H](C)c2c[nH]cn2)c1C` the remaining activity was 101% (DNA polymerase theta, ATPase domain (POLQ, Homo sapiens, UniProt O75417); enzyme activity, inhibitor; 77 µM; baseline: untreated).
`Cc1nc(Nc2ncc(C(=O)Nc3c(C)cccc3Cl)s2)cc(N2CCN(CCO)CC2)n1` has an inhibition of less than 50% (DYRK1B (Homo sapiens, UniProt Q9Y463); 10 µM).
For `Cn1cc(Cl)c2c(Oc3c(F)cc(Nc4cc(Cl)nc(N)n4)cc3F)ccnc21`, the remaining binding was 100% (pknB (Mycobacterium tuberculosis, UniProt P9WI81); cell-free assay, competition with immobilised ligand; 0.1 µM).
For `CN(N=O)C(=O)N[C@@H]1[C@@H](O)[C@H](O)[C@@H](CO)O[C@@H]1O`, the body weight was 28.5 g and 34.1 g and 37 g and 30.4 g and 30.2 g (mice, STZ diabetic neuropathy; dose not given, 14 days after STZ).
`CN(c1ccnc(CNc2nc(Nc3ccc4c(c3)CC(=O)N4)ncc2C(F)(F)F)n1)S(C)(=O)=O` gave a remaining binding of 75% (CRK2 (Plasmodium falciparum, UniProt P61075); cell-free assay, competition with immobilised ligand; 1 µM).
With `CCN(CC)C(=O)c1ccc(C2=CC3(CCNCC3)Oc3cccc(O)c32)cc1` the Emax was 114 ± 3% (Delta-type opioid receptor, with Gi1 (OPRD1, Homo sapiens, UniProt P41143); human cells).
For `Cc1c(-c2cnccn2)ssc1=S`, the inhibition was 9.9% (chymotrypsin; enzyme activity; concentration not given).

Some of these lines once more (sample 2):
For `CCn1nc(C(=O)O)c(=O)c2cc3c(cc21)OCO3`, the GFP-positive cells was 88.2%.
`NC(=O)N[C@@H](CCC(=O)O)C(=O)O` has a GFP-positive cells of 84.3%.
`CC(=O)Oc1ccccc1C(=O)O` has a GFP-positive cells of 142%.
With `CCCCN1CCCC[C@H]1C(=O)Nc1c(C)cccc1C` the GFP-positive cells was 122%.
`CO[C@H]1C(=O)[C@]2(C)[C@@H](OC)C[C@H]3OC[C@@]3(OC(C)=O)[C@H]2[C@H](OC(=O)c2ccccc2)[C@]2(O)C[C@H](OC(=O)[C@H](O)[C@@H](NC(=O)OC(C)(C)C)c3ccccc3)C(C)=C1C2(C)C` gave a GFP-positive cells of 79%.
